Measured values of several laboratories.
Each numbered part is a random draw from the data of one study; scales do not carry over between parts.

Series 1
Target: Histone acetyltransferase KAT6A, both winged helices, GST fusion (KAT6A, Homo sapiens, UniProt Q92794, residues 1-181)
Technique: protein binding microarray
Molecule type: double-stranded DNA, one strand shown
Medium: in vitro
Concentration: not given
Notes: 8-mer, flanks averaged, mean of 2 arrays, mostly near background
Reference: not given
Direction: higher = stronger binding
Target sequence (chain): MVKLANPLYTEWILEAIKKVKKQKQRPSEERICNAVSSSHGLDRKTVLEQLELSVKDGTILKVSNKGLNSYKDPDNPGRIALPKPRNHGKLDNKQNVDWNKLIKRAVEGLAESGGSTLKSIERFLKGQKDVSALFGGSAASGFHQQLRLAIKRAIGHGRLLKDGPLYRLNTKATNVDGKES
| Strand | E-score |
| --- | --- |
| AGAGAACG | -0.0798 |
| AGCAGCGG | 0.0627 |
| CTCAACCA | -0.0933 |
| AATCCTAA | -0.0643 |
| CGGGTAAA | 0.163 |
| ACATGCGC | 0.255 |
| GGGCAGCA | -0.112 |
| GTAACTTA | -0.0913 |
| AGGCGCTA | 0.12 |
| GCTGTACC | 0.0337 |
| CAGCGTGC | 0.147 |
| CAATATCA | 0.00743 |
| GTACATCA | 0.0931 |
| CAACAATC | -0.145 |
| ATCGCGGG | 0.173 |
| ACCGGCCA | 0.104 |
| ATTCGGGG | 0.0764 |
| CCAGCTAA | -0.157 |
| ATCTTCTG | -0.0257 |
| CGCGGAAG | 0.281 |
| CGCCGGAC | 0.285 |
| CATAAAAA | -0.071 |

Series 2
Target: RING finger protein unkempt homolog, zinc fingers 1-6, SBP tag (UNK, Homo sapiens, UniProt Q9C0B0, residues 30-357)
Sequence of UniProt Q9C0B0 (30-357, looked up): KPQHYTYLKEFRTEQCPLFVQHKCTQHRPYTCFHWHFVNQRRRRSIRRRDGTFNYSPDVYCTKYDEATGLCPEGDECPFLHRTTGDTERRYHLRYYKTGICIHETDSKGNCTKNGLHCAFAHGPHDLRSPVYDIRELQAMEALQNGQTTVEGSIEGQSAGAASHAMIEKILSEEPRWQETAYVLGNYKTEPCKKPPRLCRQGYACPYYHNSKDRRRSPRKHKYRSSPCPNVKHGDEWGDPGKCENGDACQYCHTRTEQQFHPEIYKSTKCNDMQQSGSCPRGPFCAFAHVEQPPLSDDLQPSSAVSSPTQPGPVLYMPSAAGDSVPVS
Technique: RNA Bind-n-Seq
Molecule type: RNA
Medium: in vitro
Concentration: 100 nM
Notes: RNA with constant flanks, vertebrate orthologous sites, ends assumed
Reference: input RNA pool
Direction: higher = stronger binding
| Strand | bound/input enrichment |
| --- | --- |
| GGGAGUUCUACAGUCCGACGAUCUUUGUUUCUAAUUUCAAGCAAAAAAAAAAUCUUAUUGUACUUGAAUGUGUCCUGUUUUGUUAGCACACCUAGACUUGCUGUAACUGUACUCAUGUCCCAGUAUGUACGUUCUUUCUAUGACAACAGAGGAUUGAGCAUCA | 0.526 ratio |
| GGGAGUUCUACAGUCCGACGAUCAUUCAUCUCUCACUUAGUGUCCAAAAUUACUGAGGGUUUGAAACAUUCAAUAGUUUCACAUAGAGCUACACUGGCAGGUGAUUUAAUACUAUCCUAGUGAGAUCAGAUACCAUUGUAGUACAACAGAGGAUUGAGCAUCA | 0.975 ratio |
| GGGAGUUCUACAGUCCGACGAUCGUGAAUAUUUGGAGUCCACAUCGUUGCUCUGAGACCCCUGCCGUCUGGAGGCUCAGACCACAGGAGGGUGUUGCUGCGUUUUCCCAAUUUGUGUACUGGGUCCUAAGUUACAUUUUAAAACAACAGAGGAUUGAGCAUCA | 0.339 ratio |
| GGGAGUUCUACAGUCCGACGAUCGAUCAAUAGAAUUACAUAAUACUAAAGUUGCAGUUGAAAGGAUAUCCAAGUAUGUGUUCGUAGUUACUAAAAGAAUUAUAGCUGUUAUUGCCUUGUAUUUAUAGCCCUUGUUUCAGGUUUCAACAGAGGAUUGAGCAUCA | 2.46 ratio |
| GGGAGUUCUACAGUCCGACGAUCAGGAAAUGUUGGCUGCAAACCCUCAGGAUCGUCCCGACGCUUUUGAGCUAGAACUUAGAUUAGUCCAAAUUGCUUUUAAAGAUAGUGGCUGGGAUACGUGACACAUGGAUUACUGGGAAACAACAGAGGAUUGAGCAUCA | 1.4 ratio |
| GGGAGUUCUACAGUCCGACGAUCAUCCUCAACUCGCUCUGGCCUGUGACCCUUCAAAACUGGGCCAGGAUUAGUGCGAGGUGCUAGGAAUUGCCGUCUCUCGCGCCAUUGAUCAGAGAGACAGACAUUAAAACAGGAAUAUCACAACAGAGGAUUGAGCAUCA | 0.215 ratio |
| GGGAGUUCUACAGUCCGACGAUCAAAUUUAUUUCAUGCCCUGGACUCCAUAUCGUACUGAUACUUUGAUAGAAUAUGCUUCUUUAGAAGAUUUCCAAAACAGUCGCCAAACAACAACAUACAAACUUCCAAAUCGAGUAGAUGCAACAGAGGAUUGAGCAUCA | 1.14 ratio |
| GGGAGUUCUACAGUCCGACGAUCUGCAUAAUGCUGUUCUUACCAAAAGCAGACGCAAGUGAUCAAAUUCUUCAAUAGUAUUUCCCACCUAUCCUCCCGUUCUGGUCCACCAGUGCUUUCAACUGUUAGAACUCUUGGUUUUUCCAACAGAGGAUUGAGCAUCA | 0.974 ratio |

Series 3
Target: RNA binding protein fox-1 homolog 2, RRM domain, GST-SBP tag (RBFOX2, Homo sapiens, UniProt O43251-10, residues 100-194)
Technique: RNA Bind-n-Seq
Molecule type: RNA
Medium: in vitro
Concentration: 365 nM
Notes: natural RNA segment, single round, ends assumed
Reference: no-protein control
Direction: higher = stronger binding
Target sequence (chain): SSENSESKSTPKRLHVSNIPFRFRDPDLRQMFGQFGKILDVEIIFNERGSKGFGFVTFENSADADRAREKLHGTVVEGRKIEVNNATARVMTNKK
| Strand | RBNS enrichment (R) |
| --- | --- |
| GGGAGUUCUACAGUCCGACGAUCACUCCUUUGACAGGCGACAAACUACUGUGGUGAGCAGAAUGAUUUCCUUUUUCAAGACAACACCUGCCUGGCUUCUAUUAAUGUGUGCUGGCCAUGAUAUUGCCCCAAAUUGGAAUUCUCGGGUGCCAA | 0.376 |
| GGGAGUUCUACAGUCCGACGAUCAGGGCCAGUCCAGGCUGUCAGCCCAUGCAGCUGACACUGGUUGGUCUCUCAGUAUGUGGGAAAUCCAGGCAAGUUUUAGAAUGUCCUAAAUUGAGCUAUUUUCACUUACUUGGAAUUCUCGGGUGCCAA | 0.377 |
| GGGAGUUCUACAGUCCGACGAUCGUAAUGAUCUGCAAGUCCCGGAGAGCAACAGCACAGCUCCGCCUGACGCUCUCAUUAAAAUCCAUGCAGCCAAGCUCUGCGCUUUGUAGCAGCCGGCCUUGCAGAGCCUCUGGAAUUCUCGGGUGCCAA | 0.388 |
| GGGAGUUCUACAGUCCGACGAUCUCUUAGUCAACCUCUGUAGAAAGUUUUCUCUAUGAAAGUAAAGCUGUUUGAGAAAUUAUUUUUUUACAGAUCUUUAUAAAAAAUAAACAUCUUUUGAUUGCUUGGAUUUAUGGAAUUCUCGGGUGCCAA | 0.815 |
| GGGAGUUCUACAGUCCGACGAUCCAUAUAAAGUAUAUAUAUAUGUAUGAUACAUGAAAUAUAUUUAGAAAUGUUCAUAAUUUUAAUGGAUAUUCUUUGGUGUGAAUAAUUGAAUACAACAUUUUUAAAAUAUCUGGAAUUCUCGGGUGCCAA | 1.11 |
| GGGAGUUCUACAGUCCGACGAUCUUGGAGUGUGCCUGCCCCCCAGCCUGGAACCCUCUGAUCAACUUGCUGGGACCUAUAACGUCUUAGGUGCAACAAGGACCCUACCAGAGCUCCUGGGUGGCUUUGUGUGAUGGAAUUCUCGGGUGCCAA | 0.375 |
| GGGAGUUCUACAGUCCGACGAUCCCAGCUGUCCCUCAGGCUGGGGGAAAACAGGUGUUUGAUUUGUCACCGUUGGAGCUUGGAUAUGUGCGUGGCAUGUGUGUGUGUGUGUGAGAGUGUGAAUGCACAGGUGGUGGAAUUCUCGGGUGCCAA | 9.15 |
| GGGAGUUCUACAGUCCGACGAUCUGACUUGGACACGGUAACUGUUGCAGUUUUAGACUCAGCAUUGUGACACUUCCCAAGAAGGCCAAACCUCUAACCGACAUUCCUGAAAUACGUGGCAUUAUUCUUUUUUGUGGAAUUCUCGGGUGCCAA | 0.641 |
| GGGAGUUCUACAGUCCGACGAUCAUACAUGUAUAAACUGUAUAGUGUACAUGUUAAUGAUUUAUCAGUAUGCCCCGAAUUCCUAGUGCAGUUCUCAUUCUCCGCAUGCCCUCAGCUGUGGUCAGGUGACUUCCUGGAAUUCUCGGGUGCCAA | 0.233 |

Series 4
Target: Interferon regulatory factor 5, full length, phosphomimetic (IRF5, Homo sapiens, UniProt Q13568-2, residues 1-514, S451D/S453D/S456D/S462D)
Technique: protein-binding microarray
Molecule type: double-stranded DNA, one strand shown
Medium: in vitro
Concentration: 940 nM top
Notes: 60-bp whole probe
With: salmon DNA 0.4 mg/ml
Reference: random background probes
Direction: higher = stronger binding
All sequences stand within: GCCTAGCAC … GTCTTGATTCGCTTGACGCTGCTG
| Strand | fitted relative affinity |
| --- | --- |
| GACAGTATCGGGTTTCGGGACGTGCTA | 5.68 z-score |
| TCACTGTTCTTTTCAGTACTGTGCTAG | 0.825 z-score |
| TCATTTTTCTAGTCCAGACTGTGCTAG | 0.626 z-score |
| TTAGGTATCCTACCGCTTTAGTGCTAG | -0.283 z-score |
| GACGATTTCGGACTGGGGACGTGCTAG | 0.163 z-score |
| TCAGTTTGCCTCCTTCAGACTGTGCTA | 0.295 z-score |
| TAAGGTATAAACTTGGGAAAGTGCTAG | -0.488 z-score |
| GACGTACTGGGGACTGGAGACGTGCTA | -0.198 z-score |
| GACGAACTGAGTTTCGAGAAGTGCTAG | 3.19 z-score |
| GACGGACTGCGGTTTCGGGACGTGCTA | 1.92 z-score |
| GACGGACAGGGGACTGGGGACGTGCTA | 0.0561 z-score |
| GACGATATCAGAATCGAGACGTGCTAG | -0.361 z-score |
| TTTTTTTTTTTTTTTGTATTGTGCTAG | 1.45 z-score |
| TCAGTTTTGAGCTCTGTCTGGGTGCTA | 0.104 z-score |
| GACGGTTTCCTTCTCCTCACGTGCTAG | 1.42 z-score |
| AAATGTTTTGTTTTTCATTAGTGCTAG | 1.24 z-score |
| TCAGGCCTCTTCATTCATACTGTGCTA | 0.2 z-score |
| GACGAACTGGGGTTTTGAGACGTGCTA | -0.0389 z-score |
| TTAGGACTGGGTCTCGGTCAGTGCTAG | 0.87 z-score |
| TTAGGACTGGGGACTGGCTTAGTGCTA | -0.0907 z-score |
| AAAAAAATCATTTTCTCTGTGTGCTAG | 0.027 z-score |
| ACCTATAGGTTGTTTCTAATAGTGCTA | 0.288 z-score |
| TACTTTCTACGTCTGATTTTGTGCTAG | 2.53 z-score |
| GACGATATCGGGTCTCGAGACGTGCTA | 0.583 z-score |
| TTAGGACTGCCACTGCTTTAGTGCTAG | -0.327 z-score |

A few entries again (series 1):
| Strand | E-score |
| --- | --- |
| CGGGTAAA | 0.163 |
| GGGCAGCA | -0.112 |
| AATCCTAA | -0.0643 |
| AGCAGCGG | 0.0627 |
| GTACATCA | 0.0931 |
| CAATATCA | 0.00743 |
| ACATGCGC | 0.255 |
